Measured values collected from several papers.
A part holds a random share of what one study measured. Substitutions count along the parent as printed.

Set 1
Target: Histone acetyltransferase KAT6A, winged helix 1, GST fusion (KAT6A, Homo sapiens, UniProt Q92794, residues 1-85)
Technique: protein binding microarray
Molecule type: double-stranded DNA, one strand shown
Matrix: in vitro
Concentration: not given
Setting: 8-mer, flanks averaged, mean of 2 arrays, mostly near background
Relative to: not given
Reading: higher = stronger binding
Measurement: E-score
Construct (chain): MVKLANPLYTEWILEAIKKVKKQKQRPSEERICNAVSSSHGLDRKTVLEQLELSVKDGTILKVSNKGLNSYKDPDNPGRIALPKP
ACTTACTC: -0.0489
GTAGGACA: -0.00763
AGACGTAT: -0.094
AAAAACCT: -0.212
GTTTAAGA: -0.0508
CGGCACAA: 0.182
ATAGCCTA: -0.0469
TTCCCAAA: -0.344
CGATGCGC: 0.314
TCGAGCAA: -0.0648
AAGGCCCT: -0.0145
ACGAGCCT: -0.0593
CTGTCCAC: -0.00743
AAAGGTGT: -0.0464
ATGGGTGG: -0.14
ACTCCTAT: -0.191
TAACAGTA: -0.0173
GGGTTGGA: -0.0569
CAGCGGAG: 0.0995
ATCACTTC: -0.157
GAGCGCTC: 0.349
ACGTCTGC: 0.0121
CACGAACG: -0.00958
AGGAATGG: -0.146
AATTTCTG: -0.207

Set 2
Target: Fragile X messenger ribonucleoprotein 1, C-terminal low-complexity region (Fmr1, Mus musculus, UniProt P35922)
Technique: RNA Bind-n-Seq
Molecule type: RNA
Matrix: in vitro
Concentration: 200 nM
Setting: whole 134-nt RNA, ends assumed
Together with: 150 mM KCl
Relative to: input library
Reading: higher = stronger binding
Measurement: log2 enrichment
Shared flanks, not repeated: GGGAGUUCUACAGUCCGACGAUC … UGGAAUUCUCGGGUGUCAAGG
UAAGAAGGAAAUUGAGAGGAGAAAAACUGGAAAAGAAAUGUUGGAUUAUAAAAGAAAACAAGAAGAAGAAUUAACAAAAAGAAUGCUGGA: -0.594
CUUUGUAAUGGGAACUGCCUCUUUCCUGUUGUUGUUAAUGAAAAUGUCAGAAACCAGUUAUGUGAAUGAUCUCUCUGAAUCCUAAGGGCU: -0.119
UCAAGUCCUGUGCUACACAUCGUAUGUACCGAAUCGGGGUUGGGUUGGUUGGGGAAAGUAUUAUGUUACGCCGUUCGGAUCUGCACUUCC: 1.19
ACCAUACUUGACAACUUCUGAUUGAAUGCCCAUGCCCAAUGCCAACAUCCACGAACGCCAAUGACCAAUGCAGUACAAUGCCAGUGUUUC: -0.268
UGGCCCUGGUGGCAUGCGGGGAGGAAGAGGUGGCCUCAUGGAUCGUGAUGGUCCCGGUGGAAUGUUCAGAGGUGGCCGUGGUGGAGACAG: -0.0858
UAACUUUAGAGGAGGAUCUGAUGGAUAUGGCAGUGGACGUGGAUUUGGGGAUGGCUAUAAUGGGUAUGGAGGGGGACCUGGAGGUGGCAA: 0.28
CAAGUCCUGUGCUACACAUCGUAUGUACCGAAUCGGUUUUUUUGGUUUGGAAAGGAAAGUAUUAUGUUACGCCGUUCGGAUCUGCACUUC: -0.918
ACCAUGCAGGUGGGCAUCUUUGGGAAGUGGGGCAAGGGGGGGAUAGGGAGGGGGGUAACACUUUGGGAACAGGUGGUCCGAGGUCGUUUC: 0.615
UGUUCUGCAGAGGGGCGGUGUCAUUACUGAUGAAGAGGAAACCUCUAAGAAGAUAGCUGACCAGUUGGACAACAUUGUGGACAUGCGCGA: -1.73
UCAAGUCCUGUGCUACACAUCGUAUGUACCGAAUCGGGUUUGGGAAAGGGUGGGAAAGUAUUAUGUUACGCCGUUCGGAUCUGCACUUCC: 1.24
GUCCUGUGCUACACAUCGUAUGUACCGAAUCAAACCCAAACCCCCAAACCCCCCCAAAAAAGUAUUAUGUUACGCCGUUCGGAUCUGCAC: -0.17
AUGAAGAUGAAGAAGAGGAUGAUGAGGACGAGGAUGACGACGACGACGAAGAUGAUGAAGAUGAUGAUGAUGAAGAUGAUGAGGAGGAGG: 0.201
UGGCCCUGGUGGCAUGCGGGGAGGAAGAGGUGGCCUCAUGGAUCGUGGUGGUCCCGGUGGAAUGUUCAGAGGUGGCCGUAGUGGAGACAG: -0.207
CUGUGCUACACAUCGUAUGUACCGAAUCGGGGCCCCCCGGGGCCCCCCGGGGCCCCCCGGGGAAAGUAUUAUGUUACGCCGUUCGGAUCU: -1.59

Set 3
Target: Sal-like protein 4, full length isoform A (SALL4, Homo sapiens, UniProt Q9UJQ4, residues 1-1053)
Chain of UniProt Q9UJQ4 (whole entry, looked up): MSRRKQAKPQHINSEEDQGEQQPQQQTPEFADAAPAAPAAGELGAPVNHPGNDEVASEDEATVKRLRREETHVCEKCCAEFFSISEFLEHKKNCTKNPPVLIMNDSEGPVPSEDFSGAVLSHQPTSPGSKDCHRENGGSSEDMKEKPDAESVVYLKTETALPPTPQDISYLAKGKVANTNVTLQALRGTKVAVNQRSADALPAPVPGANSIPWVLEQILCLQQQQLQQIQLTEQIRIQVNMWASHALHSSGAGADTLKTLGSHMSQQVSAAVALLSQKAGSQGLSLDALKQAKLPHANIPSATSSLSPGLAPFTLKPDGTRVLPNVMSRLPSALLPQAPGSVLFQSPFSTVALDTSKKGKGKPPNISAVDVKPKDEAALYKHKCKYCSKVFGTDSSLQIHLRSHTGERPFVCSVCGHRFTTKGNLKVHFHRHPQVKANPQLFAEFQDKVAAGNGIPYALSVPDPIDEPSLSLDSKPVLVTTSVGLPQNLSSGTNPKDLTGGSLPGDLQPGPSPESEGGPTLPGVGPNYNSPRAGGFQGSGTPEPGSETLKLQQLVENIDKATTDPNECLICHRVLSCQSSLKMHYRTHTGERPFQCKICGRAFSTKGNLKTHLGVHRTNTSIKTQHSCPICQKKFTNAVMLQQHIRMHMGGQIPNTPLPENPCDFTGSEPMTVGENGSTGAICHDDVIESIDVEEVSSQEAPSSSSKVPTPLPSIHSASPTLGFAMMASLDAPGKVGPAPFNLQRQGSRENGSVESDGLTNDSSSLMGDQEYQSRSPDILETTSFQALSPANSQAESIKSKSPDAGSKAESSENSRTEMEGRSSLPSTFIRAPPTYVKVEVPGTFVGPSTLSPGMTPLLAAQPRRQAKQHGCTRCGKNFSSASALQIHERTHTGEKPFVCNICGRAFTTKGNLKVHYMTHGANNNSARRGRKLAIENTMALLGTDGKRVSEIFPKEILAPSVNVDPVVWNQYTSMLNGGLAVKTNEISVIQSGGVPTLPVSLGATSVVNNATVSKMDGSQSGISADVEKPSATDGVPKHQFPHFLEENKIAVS
Technique: universal PBM
Molecule type: double-stranded DNA, one strand shown
Matrix: in vitro
Concentration: 600 nM
Setting: 8-mer, flanks averaged, mean of replicates
Reading: higher = stronger binding
Measurement: E-score
CGACTAAC: -0.0959
AGGATTGG: -0.00958
AACCGGTG: -0.229
CCCGATTA: -0.0504
CATGAAGG: 0.0436
ACATTGTG: 0.0424
CATAGAAG: 0.192
AGAACTCC: -0.137
AAATTATC: 0.426
CTAGGAGA: -0.0231
CCAGTATC: -0.116
CCATTGAC: -0.0575
AATTATCC: 0.232
ACCACGGA: -0.336
CGAGCTTA: -0.108
ATCGTATG: 0.193
GTAGGCAA: 0.0542
GCTTACAC: -0.287
AAGATTTC: 0.0862
GAGGATAA: 0.135
CGGCTGAG: -0.261
TCCCAGCA: -0.139
ACCATCGT: -0.192
ATGGTCCC: -0.287
ACCCCCCT: -0.407

Set 4
Target: Prothrombin, mature alpha-thrombin (F2, Homo sapiens, UniProt P00734)
Technique: aptamer microarray, sandwich
Molecule type: DNA with 2'F-ANA
Matrix: in vitro
Concentration: 200 nM
Setting: whole 15-mer aptamer, many near background
Together with: Cy3 exosite-II aptamer, 400 nM
Reading: higher = stronger binding
Measurement: mean fluorescence intensity
Strand: GGTTGGTGTGGTTGG
2'F-ANA at 1 2 3 6 12 15: 450 a.u.
2'F-ANA at 8 10 11 14 15: 94.2 a.u.
2'F-ANA at 2 3 5 6 10 13 15: 48.3 a.u.
2'F-ANA at 2 6 8 11 13 14: 121 a.u.
2'F-ANA at 2 4 7 8 10 12 13 14 15: 74.8 a.u.
2'F-ANA at 5 7 9 10 13 14: 42.8 a.u.
2'F-ANA at 1 2 9 10 13 15: 52.1 a.u.
2'F-ANA at 3 5 6 7 9 11 13 14 15: 54.4 a.u.
2'F-ANA at 4 8 11 12 13: 391 a.u.
2'F-ANA at 1 5 7 11 13 14 15: 59 a.u.
2'F-ANA at 1 2 4 8 9 10 12 14 15: 48.7 a.u.
2'F-ANA at 1 4 5 6 9 10 11 12: 50.6 a.u.
2'F-ANA at 2 8 9 11 12 13 15: 510 a.u.
2'F-ANA at 4 5 8 10 12 14 15: 54.5 a.u.
2'F-ANA at 1 6 7 8 10 13: 57.7 a.u.
2'F-ANA at 1 2 3 5 7 10: 62.4 a.u.
2'F-ANA at 1 3 4 5 6 8 9 12 13 15: 75.4 a.u.
2'F-ANA at 2 7 11 12 13: 667 a.u.
2'F-ANA at 2 7 9 11 12 13 15: 471 a.u.
2'F-ANA at 1 4 5 8 11 12 13 15: 65.5 a.u.

Set 5
Target: ABI1, truncated, D143A, DHFR fusion (Arabidopsis thaliana)
Technique: DHFR PCA, deep sequencing
Matrix: yeast
Setting: methotrexate growth selection, single substitutions
Together with: (+)-ABA 17 µM
Relative to: wild-type fitted maximum
Reading: higher = stronger binding
Measurement: relative binding score
Parent: PYL1, truncated, DHFR fusion (Arabidopsis thaliana); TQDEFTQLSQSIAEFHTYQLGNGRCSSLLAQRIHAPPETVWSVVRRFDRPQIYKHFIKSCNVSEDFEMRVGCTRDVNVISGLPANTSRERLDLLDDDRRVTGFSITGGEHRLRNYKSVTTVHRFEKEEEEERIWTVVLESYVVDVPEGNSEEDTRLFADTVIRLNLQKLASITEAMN
Q31H: 65%
H16D: -8.96%
A158N: 35.4%
I172L: 85.6%
L82I: 82.4%
S42H: 64.5%
E147G: 63.3%
T106Q: 68.2%
L82V: 60%
P83T: 19.8%
V143G: -4.62%
Y115F: 76.3%
E89K: 6.44%
N22R: 83.7%
L156M: 86.3%
V142M: 76.9%
A158F: 7.85%
L164H: 83.6%
K58A: 81%
I33K: -18.4%
M176R: 83.5%
L94E: -1.51%
M176I: 80.6%
Q167G: 75.4%
E129N: 82.9%

Set 6
Target: RNA binding protein fox-1 homolog 2, RRM domain, GST-SBP tag (RBFOX2, Homo sapiens, UniProt O43251-10, residues 100-194)
Technique: RNA Bind-n-Seq
Molecule type: RNA
Matrix: in vitro
Concentration: 365 nM
Setting: natural RNA segment, single round, ends assumed
Relative to: no-protein control
Reading: higher = stronger binding
Measurement: RBNS enrichment (R)
Shared flanks, not repeated: GGGAGUUCUACAGUCCGACGAUC … UGGAAUUCUCGGGUGCCAA
Construct (chain): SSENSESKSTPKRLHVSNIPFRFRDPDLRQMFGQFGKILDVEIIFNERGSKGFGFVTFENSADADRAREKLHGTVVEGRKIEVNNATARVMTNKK
CUGAGGAAUGAUAGCGAAGAGUGUUUUUUUCAUAAACUGGAUCAAACUCCGUCUUCAUGUUUACCAUGGAGAGUUUUACAGAAAUCGGGCUGCACUCUGGGAGUGCUUAC: 0.448
AGUGCUCUCCCCUAAGUUGGGUGCUAAGAGCUUUUGUCAGUGAGGGGCCUCUGUCAUUGUCUCAAAGACAGAGCUUAAAGAGGUCAGAAUGAGUUCUCUGUUGUGCCCCC: 0.378
GACAUCCAUAAGGAAUGCCAAAUGCUGUAUUGAAUAGUUCUCCUGUGUGACUUUCUAGAGAAGCCAGGACACCCCUGAGCCUUUCCUGGGAACUCCUAAGGAAGUCACAG: 0.243
GCAAACUCUCCCAGCUCUGUGAAUCUACAGAAGAGGGGGUCAGGCUGAGGUGGUUGUGACCUGGAUCUUGAAGACUAAAAGACACAGAGUCUGCUGAGCUGCUCCUGUGC: 0.337
AUUCUGGCCUUGGAAUACUUUAAUUCCGGACCAAAAGAGGUCAAUUUUGUGAGUAUUGCCUAUUAAGUAAACAACAUCCCUCAUUUUUAAUCCAAAUAUCAAUUUGACAG: 0.329
CUUUGUCAUAUACUCUGCAUCACUGUCAUACUCACAACUUCGUGAAUAAAGUUGUGUGCUUUAUUCGAGAUGCCUCCAUACCUGUGUUUCAUUUCUCGUUCCCUGGCUCC: 0.525
UAAUGUAUUGUUGGUAAUUAUUUUGGUACUUUUAUGAUGUAUAUUUAUUAAACAGAUUUUUACAAAUAGUUAUCCUGAUCAUUUUCUUCAGGCUGCCGUGGGCCUCCGGU: 0.361
UUUCUUAAUUUGCAAAUUUCUUCUUAUUUUGGUACUUGGAAUAUAGUGUGAGAUUUUUUAUUUCUAAAUUUUGUUGUAUCUUCUAUUACAUAAAUGCAUUGACAAUUAUA: 1.65
GACUCGACAGUCACCGUAAAAUCUGAGUCAGUCACACACAGGCUGUCAGCCACGGCUUCCACUUGCAUGGCUAUUCUAUUUUCACACGUGAGUUUCUGUUGCUGGCUGGC: 2.84
AUAGAGGCUGGGCAUCACAUCAAAUGGGACUGUGGUGUUUGGUGAAAACCUUCCUGAGGAUCUGGAUUCAGGACCCUCCAUGACUGGCCUAUUUACUGUUUACAGCUGGC: 0.397
UGGGGUAUAGAACGCUAAGAAUUUUCCCCCAAGGACUCUUGCUUCCUUAAGCCCUUCUGGCUUCGUUUAUGGUCUUCAUUAAAAGUAUAAGCCUAACUUUGUCGCUAGUC: 0.316
AGGUGCUGUUAGACACAGAAGGUAAAUAUGUUCUUAACAAAAUGCUUUCUGAAAUUUUGAACCCCACUUAUCCAUUGUUUGAAACCAGCAGUUUAAACCUCCUGACCCAC: 0.447

Repeated from above (set 1):
GTAGGACA: -0.00763
AGGAATGG: -0.146
AGACGTAT: -0.094
TTCCCAAA: -0.344
AATTTCTG: -0.207
ATGGGTGG: -0.14
CGGCACAA: 0.182
GTTTAAGA: -0.0508
ATAGCCTA: -0.0469
ACTCCTAT: -0.191
